Measured values from different studies.
Numbered parts are unrelated; each lists some results of a single study.
UniProt P10721, sequence (whole entry, unmodified, looked up): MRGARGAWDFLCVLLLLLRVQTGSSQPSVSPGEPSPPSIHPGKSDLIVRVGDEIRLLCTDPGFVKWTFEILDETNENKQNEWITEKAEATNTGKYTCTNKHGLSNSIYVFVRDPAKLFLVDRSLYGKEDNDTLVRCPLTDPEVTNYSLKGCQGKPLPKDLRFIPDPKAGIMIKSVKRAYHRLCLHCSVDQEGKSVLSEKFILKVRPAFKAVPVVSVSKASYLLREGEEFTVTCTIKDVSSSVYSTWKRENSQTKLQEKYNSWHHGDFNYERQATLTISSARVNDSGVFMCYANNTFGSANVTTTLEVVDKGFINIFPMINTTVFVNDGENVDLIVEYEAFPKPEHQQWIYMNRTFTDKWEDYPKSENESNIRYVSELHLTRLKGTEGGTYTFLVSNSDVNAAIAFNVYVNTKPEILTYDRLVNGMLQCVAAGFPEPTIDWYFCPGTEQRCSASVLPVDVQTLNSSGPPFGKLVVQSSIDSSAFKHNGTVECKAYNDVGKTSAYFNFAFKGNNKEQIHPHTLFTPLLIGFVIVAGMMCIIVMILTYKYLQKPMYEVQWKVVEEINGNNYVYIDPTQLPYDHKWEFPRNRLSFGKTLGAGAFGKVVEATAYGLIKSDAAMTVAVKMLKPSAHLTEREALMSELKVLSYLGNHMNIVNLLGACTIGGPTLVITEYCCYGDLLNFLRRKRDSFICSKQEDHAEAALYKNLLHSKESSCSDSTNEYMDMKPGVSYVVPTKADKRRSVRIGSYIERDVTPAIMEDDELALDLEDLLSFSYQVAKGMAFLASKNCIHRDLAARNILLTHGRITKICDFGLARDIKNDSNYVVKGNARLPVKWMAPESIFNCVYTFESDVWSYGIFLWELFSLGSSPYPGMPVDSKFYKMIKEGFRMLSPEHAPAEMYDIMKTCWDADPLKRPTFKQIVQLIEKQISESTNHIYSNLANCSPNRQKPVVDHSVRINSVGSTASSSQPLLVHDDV
UniProt Q6P2M8, sequence (whole entry, looked up): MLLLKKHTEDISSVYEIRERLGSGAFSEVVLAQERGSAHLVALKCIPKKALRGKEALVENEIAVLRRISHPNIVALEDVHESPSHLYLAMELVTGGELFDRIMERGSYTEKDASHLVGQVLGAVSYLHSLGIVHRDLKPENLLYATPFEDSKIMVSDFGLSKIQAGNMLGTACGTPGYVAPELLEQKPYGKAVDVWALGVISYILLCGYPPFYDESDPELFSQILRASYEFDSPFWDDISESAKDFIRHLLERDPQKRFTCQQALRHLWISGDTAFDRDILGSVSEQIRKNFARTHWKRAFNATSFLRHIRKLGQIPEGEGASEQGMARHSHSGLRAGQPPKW
UniProt Q16513, sequence (whole entry, looked up): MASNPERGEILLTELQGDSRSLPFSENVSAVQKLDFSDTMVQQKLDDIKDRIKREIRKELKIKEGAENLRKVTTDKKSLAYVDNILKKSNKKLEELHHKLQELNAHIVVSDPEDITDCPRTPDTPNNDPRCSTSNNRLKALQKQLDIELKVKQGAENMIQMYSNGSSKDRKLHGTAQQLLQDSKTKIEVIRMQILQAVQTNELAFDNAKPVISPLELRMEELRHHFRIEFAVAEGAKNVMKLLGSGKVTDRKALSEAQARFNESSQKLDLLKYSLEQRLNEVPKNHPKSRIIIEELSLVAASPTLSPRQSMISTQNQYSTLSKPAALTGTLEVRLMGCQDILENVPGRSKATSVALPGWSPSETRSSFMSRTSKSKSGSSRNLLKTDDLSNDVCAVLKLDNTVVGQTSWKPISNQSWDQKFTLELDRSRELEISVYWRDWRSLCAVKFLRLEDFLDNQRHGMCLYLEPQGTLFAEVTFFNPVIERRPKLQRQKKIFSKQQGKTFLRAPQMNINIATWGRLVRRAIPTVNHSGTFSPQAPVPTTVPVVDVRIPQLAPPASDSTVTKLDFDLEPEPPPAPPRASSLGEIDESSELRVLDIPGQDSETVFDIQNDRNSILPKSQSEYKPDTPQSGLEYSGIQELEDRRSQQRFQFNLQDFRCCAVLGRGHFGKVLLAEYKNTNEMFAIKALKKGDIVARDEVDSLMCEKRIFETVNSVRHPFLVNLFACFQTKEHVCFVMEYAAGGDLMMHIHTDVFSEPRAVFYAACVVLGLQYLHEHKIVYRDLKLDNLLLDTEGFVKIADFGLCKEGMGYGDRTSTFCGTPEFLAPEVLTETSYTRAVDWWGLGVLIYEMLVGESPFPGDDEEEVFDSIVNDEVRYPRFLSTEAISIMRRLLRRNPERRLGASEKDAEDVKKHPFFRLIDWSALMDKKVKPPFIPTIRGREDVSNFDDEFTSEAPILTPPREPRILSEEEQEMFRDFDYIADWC
UniProt Q96L34, sequence (whole entry, looked up): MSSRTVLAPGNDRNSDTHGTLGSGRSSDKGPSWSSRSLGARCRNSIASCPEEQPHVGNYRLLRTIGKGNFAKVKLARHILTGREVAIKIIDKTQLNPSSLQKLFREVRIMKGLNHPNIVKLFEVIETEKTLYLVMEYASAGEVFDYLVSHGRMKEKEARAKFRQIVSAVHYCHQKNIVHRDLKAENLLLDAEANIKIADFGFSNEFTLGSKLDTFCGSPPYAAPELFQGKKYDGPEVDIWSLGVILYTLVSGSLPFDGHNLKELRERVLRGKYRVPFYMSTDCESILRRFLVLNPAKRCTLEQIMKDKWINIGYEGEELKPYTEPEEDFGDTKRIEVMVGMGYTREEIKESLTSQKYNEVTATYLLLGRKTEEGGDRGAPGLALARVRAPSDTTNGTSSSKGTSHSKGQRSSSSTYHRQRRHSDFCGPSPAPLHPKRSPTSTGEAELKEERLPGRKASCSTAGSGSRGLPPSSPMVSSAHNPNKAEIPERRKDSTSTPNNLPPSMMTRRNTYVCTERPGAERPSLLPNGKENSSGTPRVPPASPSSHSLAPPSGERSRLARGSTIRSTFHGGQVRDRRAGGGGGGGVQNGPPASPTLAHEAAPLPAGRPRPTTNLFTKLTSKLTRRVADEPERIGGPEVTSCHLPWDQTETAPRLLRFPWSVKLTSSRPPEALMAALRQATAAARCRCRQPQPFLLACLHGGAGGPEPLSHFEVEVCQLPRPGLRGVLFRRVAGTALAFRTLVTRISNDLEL
UniProt Q8TDC3, sequence (whole entry, looked up): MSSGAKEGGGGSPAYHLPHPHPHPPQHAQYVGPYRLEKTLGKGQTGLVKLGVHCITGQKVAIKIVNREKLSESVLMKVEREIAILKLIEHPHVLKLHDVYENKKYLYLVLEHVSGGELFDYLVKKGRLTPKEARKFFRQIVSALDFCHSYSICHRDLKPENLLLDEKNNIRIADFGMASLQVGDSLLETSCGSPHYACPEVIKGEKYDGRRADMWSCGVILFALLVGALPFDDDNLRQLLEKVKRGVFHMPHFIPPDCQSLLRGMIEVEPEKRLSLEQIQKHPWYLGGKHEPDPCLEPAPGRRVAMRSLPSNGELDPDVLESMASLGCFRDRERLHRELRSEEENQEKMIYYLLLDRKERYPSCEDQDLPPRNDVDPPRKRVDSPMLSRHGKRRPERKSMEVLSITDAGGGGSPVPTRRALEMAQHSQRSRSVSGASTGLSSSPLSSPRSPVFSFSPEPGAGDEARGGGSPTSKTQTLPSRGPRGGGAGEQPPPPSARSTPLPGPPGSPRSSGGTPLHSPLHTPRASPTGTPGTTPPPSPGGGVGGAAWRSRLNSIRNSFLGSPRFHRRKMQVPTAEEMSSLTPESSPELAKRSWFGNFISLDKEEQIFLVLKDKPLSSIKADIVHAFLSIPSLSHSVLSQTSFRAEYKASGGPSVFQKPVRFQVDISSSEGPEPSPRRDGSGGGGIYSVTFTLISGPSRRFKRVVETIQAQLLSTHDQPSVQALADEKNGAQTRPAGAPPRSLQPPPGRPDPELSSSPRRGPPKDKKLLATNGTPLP
UniProt Q9H0K1, sequence (whole entry, looked up): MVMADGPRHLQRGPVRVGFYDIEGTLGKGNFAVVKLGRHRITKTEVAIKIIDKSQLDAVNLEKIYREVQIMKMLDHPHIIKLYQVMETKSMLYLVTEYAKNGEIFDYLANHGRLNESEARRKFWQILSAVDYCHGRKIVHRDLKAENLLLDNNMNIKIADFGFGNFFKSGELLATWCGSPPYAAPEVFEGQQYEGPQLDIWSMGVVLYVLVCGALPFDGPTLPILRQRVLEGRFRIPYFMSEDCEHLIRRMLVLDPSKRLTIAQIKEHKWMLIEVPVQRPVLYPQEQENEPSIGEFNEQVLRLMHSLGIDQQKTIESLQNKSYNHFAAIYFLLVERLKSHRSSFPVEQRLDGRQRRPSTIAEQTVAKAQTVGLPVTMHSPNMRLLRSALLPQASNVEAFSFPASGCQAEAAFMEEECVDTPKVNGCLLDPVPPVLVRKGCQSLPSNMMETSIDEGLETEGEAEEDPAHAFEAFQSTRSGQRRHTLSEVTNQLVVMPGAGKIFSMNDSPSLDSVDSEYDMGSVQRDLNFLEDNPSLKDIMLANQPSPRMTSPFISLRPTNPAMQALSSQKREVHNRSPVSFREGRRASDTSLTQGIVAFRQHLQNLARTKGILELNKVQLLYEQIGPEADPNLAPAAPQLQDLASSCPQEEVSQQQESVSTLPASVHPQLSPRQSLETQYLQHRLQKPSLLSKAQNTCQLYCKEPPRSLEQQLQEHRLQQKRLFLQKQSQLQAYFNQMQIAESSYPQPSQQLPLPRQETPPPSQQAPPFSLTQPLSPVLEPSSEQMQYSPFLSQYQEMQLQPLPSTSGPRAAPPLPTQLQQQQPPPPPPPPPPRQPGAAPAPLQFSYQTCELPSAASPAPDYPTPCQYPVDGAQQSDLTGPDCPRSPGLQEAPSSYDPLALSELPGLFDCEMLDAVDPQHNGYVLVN
UniProt Q00526, sequence (whole entry, looked up): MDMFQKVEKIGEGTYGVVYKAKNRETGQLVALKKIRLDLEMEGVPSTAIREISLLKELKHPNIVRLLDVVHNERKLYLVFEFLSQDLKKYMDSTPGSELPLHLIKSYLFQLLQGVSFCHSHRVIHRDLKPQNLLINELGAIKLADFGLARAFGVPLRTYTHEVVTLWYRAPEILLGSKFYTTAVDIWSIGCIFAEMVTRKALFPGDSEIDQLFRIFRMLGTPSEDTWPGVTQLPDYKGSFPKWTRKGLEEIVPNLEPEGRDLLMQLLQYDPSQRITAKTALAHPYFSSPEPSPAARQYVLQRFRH

Set 1
Target: TAR DNA-binding protein 43, full length, His tag (TARDBP, Homo sapiens, UniProt Q13148, residues 1-414)
Method: RNA Bind-n-Seq
Form: RNA
Medium: in vitro
Concentration: 20 nM
Notes: 6-mer, flanks averaged, single round
With: 150 mM LiCl
Baseline: input library
Direction: higher = stronger binding
Sequence	6-mer enrichment (R)
AAAGUU	0.871
UCGCGA	0.872
AGAUUC	0.825
UUUUGA	1.14
UAACAU	0.881
GCAGUC	0.879
UCGGCU	0.962
AUCAAU	0.865

Set 2
Structure (SMILES): COc1ccc(Cl)cc1NC(=O)Nc1cc(C)nc2ccccc12
Observed: enzyme activity
Mode: inhibitor
Concentration: 0.5 µM
Baseline: control
target	remaining activity
CAMK4 (Homo sapiens, UniProt Q16566)	93.6%
Cyclin-dependent kinase 9, with cyclin K (CDK9, Homo sapiens, UniProt P50750)	95.9%
Cyclin-dependent kinase 1, with cyclin A (CDK1, Homo sapiens, UniProt P06493)	104%
GRK4 (Homo sapiens, UniProt P32298)	105%
PNCK (Homo sapiens, UniProt Q6P2M8)	98.7%
ROCK1 (Homo sapiens, UniProt Q13464)	100%
TXK (Homo sapiens, UniProt P42681)	98.9%
MARK4 (Homo sapiens, UniProt Q96L34)	79.7%
MAP2K1 (Homo sapiens, UniProt Q02750)	101%
CLK4 (Homo sapiens, UniProt Q9HAZ1)	108%
DDR2 (Homo sapiens, UniProt Q16832)	97.7%
MAPK14 (Homo sapiens, UniProt Q16539)	98.5%
DCLK2 (Homo sapiens, UniProt Q8N568)	96.5%

Set 3
Target: PABPC1L2, full length, GST fusion (mouse, UniProt A0ABA7IW68)
Method: RNAcompete
Form: RNA
Medium: in vitro
Concentration: 20 nM
Notes: 7-mer, probes averaged, single round
Baseline: mean of 7-mers
Direction: higher = stronger binding
Residues (chain): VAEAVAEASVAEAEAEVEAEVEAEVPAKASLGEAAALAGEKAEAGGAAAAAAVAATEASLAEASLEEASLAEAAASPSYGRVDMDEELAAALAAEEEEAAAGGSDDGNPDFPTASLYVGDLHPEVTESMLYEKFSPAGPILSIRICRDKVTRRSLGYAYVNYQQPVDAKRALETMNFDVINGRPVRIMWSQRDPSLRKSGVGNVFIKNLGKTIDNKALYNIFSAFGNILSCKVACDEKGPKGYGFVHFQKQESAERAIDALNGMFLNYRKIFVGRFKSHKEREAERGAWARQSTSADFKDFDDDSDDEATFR
Sequence	7-mer Z-score
CGAUUUC	-0.365
UGAUACC	-0.271
AUAAGCU	0.0551
UUGUUCA	-0.398
GACCUUG	-0.262
AUAGAUC	0.00979
GGGAUAA	0.539
AUCAAAG	0.28

Set 4
Compound: CCOC(=O)c1cc2cc(-c3cc(C(=O)NCc4ccc(C(=O)O)cc4)nn3C)ccc2[nH]1
Observed: cell-free assay
Method: competition with immobilised ligand
Concentration: 0.1 µM
target	remaining binding
MET (Homo sapiens, UniProt P08581)	96%
HASPIN (Homo sapiens, UniProt Q8TF76)	77%
MAP4K4 (Homo sapiens, UniProt O95819)	95%
FGFR2 (Homo sapiens, UniProt P21802)	89%
EIF2AK1 (Homo sapiens, UniProt Q9BQI3)	91%
ANKK1 (Homo sapiens, UniProt Q8NFD2)	100%
BRSK1 (Homo sapiens, UniProt Q8TDC3)	100%
KIT (Homo sapiens, UniProt P10721, D816V)	100%
NEK5 (Homo sapiens, UniProt Q6P3R8)	100%
KIT (Homo sapiens, UniProt P10721, D816H)	75%
GRK7 (Homo sapiens, UniProt Q8WTQ7)	86%
Aurora kinase A (AURKA, Homo sapiens, UniProt O14965)	90%
MERTK (Homo sapiens, UniProt Q12866)	100%
PKN2 (Homo sapiens, UniProt Q16513)	86%
PIP4K2C (Homo sapiens, UniProt Q8TBX8)	95%
PIK3CA (Homo sapiens, UniProt P42336, E542K)	96%
IGF1R (Homo sapiens, UniProt P08069)	82%
CSNK1G3 (Homo sapiens, UniProt Q9Y6M4)	100%
SIK2 (Homo sapiens, UniProt Q9H0K1)	100%
CDK3 (Homo sapiens, UniProt Q00526)	43%
BLK (Homo sapiens, UniProt P51451)	99%

Some of these lines once more (set 4):
target	remaining binding
Aurora kinase A (AURKA, Homo sapiens, UniProt O14965)	90%
MERTK (Homo sapiens, UniProt Q12866)	100%
PKN2 (Homo sapiens, UniProt Q16513)	86%
PIP4K2C (Homo sapiens, UniProt Q8TBX8)	95%
